Published values pooled from the literature.
Each line is one published result; not all experiments were run side by side. Numbers after ± are the reported error.
CHRM1: Muscarinic acetylcholine receptor M1 (CHRM1, Homo sapiens, UniProt P11229)
UniProt P11229, sequence (whole entry, looked up): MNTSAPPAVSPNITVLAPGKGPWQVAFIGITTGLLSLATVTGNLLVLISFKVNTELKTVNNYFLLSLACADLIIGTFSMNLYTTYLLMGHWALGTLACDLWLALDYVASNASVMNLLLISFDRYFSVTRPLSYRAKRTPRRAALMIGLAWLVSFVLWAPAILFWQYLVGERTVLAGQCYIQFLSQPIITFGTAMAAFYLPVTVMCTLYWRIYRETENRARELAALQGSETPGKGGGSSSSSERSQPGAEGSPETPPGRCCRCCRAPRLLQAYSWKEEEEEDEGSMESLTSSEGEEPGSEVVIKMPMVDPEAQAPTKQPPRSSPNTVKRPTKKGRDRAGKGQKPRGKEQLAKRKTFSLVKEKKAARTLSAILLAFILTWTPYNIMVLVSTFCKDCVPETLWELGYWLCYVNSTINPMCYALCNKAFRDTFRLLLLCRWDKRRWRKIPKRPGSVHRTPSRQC

O=c1cc(-c2ccccc2OCc2ccc(-c3ncco3)cc2)ncn1C1CCCCC1O (centres unmarked)
ΔpEC50 of ACh (CHRM1; positive allosteric modulator, IP1 accumulation; CHO-M1 cells; 10 µM, 60 min, 37 °C, added: ACh; relative to: ACh alone, higher = stronger potentiation): 1.61 ± 0.23 log units

Cc1cc(C)c2c(c1)[C@@H](N(Cc1cc(C(F)(F)F)cc(C(F)(F)F)c1)c1nnn(C)n1)CCCN2C[C@H]1CC[C@H](C(=O)O)CC1
plasma concentration (human, plasma; oral, 100 mg daily, 4 to 6 weeks after last dose): 50.9 ng/mL

O=C(OC(C(F)(F)F)C(F)(F)F)N1CCN(Cc2ccc(C(F)(F)F)cc2N2CCCC2)CC1
plasma concentration (wild-type mouse, plasma; oral in chow, 350 mg/kg chow, 13 days, P31): 297 ± 74 ng/mL

CCCCCCCCCCCCCCCC(=O)N[C@@H](CCCNC(=N)N)C(=O)N[C@@H](C)C(=O)N[C@@H](CC(C)C)C(=O)N[C@@H](CCC(N)=O)C(=O)N[C@@H](CCCCN)C(=O)N[C@@H](CCCNC(=N)N)C(=O)N[C@@H](CC(C)C)C(=O)N[C@@H](CCCNC(=N)N)C(=O)N[C@@H](CCC(=O)O)C(=O)N1CCC[C@H]1C(=O)N[C@@H](CCC(=O)O)C(=O)N[C@@H](CCCCN)C(=O)N[C@@H](CCC(N)=O)C(=O)N1CCC[C@H]1C(=O)N[C@@H](CCCCN)C(=O)N[C@@H](CC(C)C)C(=O)N[C@@H](CCC(N)=O)C(=O)N[C@@H](CCCNC(=N)N)C(=O)N[C@@H](C)C(=O)N[C@@H](CCC(N)=O)C(=O)N[C@@H](C)C(N)=O
plasma concentration (mouse, CD-1, plasma; subcutaneous, 10 mg/kg, 15 min to 6 h): 1600 to 4300 nM

CCC(=O)N1CCC(NC(=O)Nc2ccc(OC(F)(F)F)cc2)CC1
plasma concentration (Swiss Webster mouse, plasma; oral, dose not given, 7 h): > 8 nM

O=c1cc(-c2ccccc2OCc2ccc(Cl)nc2)ncn1C1CCCCC1O (centres unmarked)
change in baseline activity (CHRM1; allosteric agonist, IP1 accumulation; CHO-M1 cells; 1 µM, unit not given; relative to: maximum ACh response): -6.4 ± 2.3

CS(=O)(=O)n1cc2c(n1)CN([C@H]1CO[C@H](c3cc(F)ccc3F)[C@@H](N)C1)C2
plasma concentration (healthy Japanese men, fasted, plasma; oral, 10 mg single dose, 168 h): 8.1 nM

Cc1ccc([C@H]2C[C@@H]2COc2cc(NCc3nnc(C)s3)nc(C)n2)nc1
plasma concentration (rat (MK-801-induced hyperlocomotion), plasma; oral, 0.75 mg/kg, 2.5 h): 50 nM

CC(C)(O/N=C(\C(=O)N[C@H]1CN2CC(C(=O)NCCN3C(=O)c4cc(O)c(O)cc4C3=O)=C(C(=O)O)N2C1=O)c1nc(N)sc1Cl)C(=O)O
plasma concentration (CD-1 mouse, plasma; subcutaneous, 50 mg/kg, 1 h): 3140 ng/mL

OC[C@H]1O[C@@H](c2ccc(Cl)c(Cc3ccc(O[C@H]4CCOC4)cc3)c2)[C@H](O)[C@@H](O)[C@@H]1O
plasma concentration (HPLC-MS/MS; healthy Chinese volunteers, fasting; oral, 10 mg tablet, 2.25 h): 148 ± 28.2 ng/mL

N=C(N)c1ccc(CNC(=O)[C@@H]2CCN2C(=O)[C@H](NCC(=O)O)C2CCCCC2)cc1
plasma concentration (Wistar rats male, plasma; intravenous, 0.01 mg/kg, 15 min, 10 min after TF): 19 ng/mL

CNC(=O)c1cc2c(Oc3ccc(NC(=O)C4(C(=O)Nc5ccc(F)cc5)CC4)cc3)ccnc2cc1OC
plasma concentration (LC-MS/MS; mouse, Hs746T xenograft, plasma; oral, 30 mg/kg single dose, 4 h): 20000 nM

COc1cc2c(cc1OC)CN(CCc1ccc(NC(=O)c3cc(OC)c(OC)cc3NC(=O)c3cnc4ccccc4c3)cc1)CC2
plasma concentration (Wistar Unilever rat, plasma; intravenous, 5 mg/kg, 3 h): 807 ng/mL

CCn1nc(C2CC2)cc1Nc1nc(C(=O)NCCCCCc2cccc3c2CN(C2CCC(=O)NC2=O)C3=O)nc2[nH]c3cc(-c4c(C)noc4C)c(OC)cc3c12 (centres unmarked)
plasma concentration (female SCID C.B-17 mouse, plasma; intravenous, 5 mg/kg single, 1 h): 422 ng/mL

For quick reference, copied from above:
CC(C)(O/N=C(\C(=O)N[C@H]1CN2CC(C(=O)NCCN3C(=O)c4cc(O)c(O)cc4C3=O)=C(C(=O)O)N2C1=O)c1nc(N)sc1Cl)C(=O)O
plasma concentration (CD-1 mouse, plasma; subcutaneous, 50 mg/kg, 1 h): 3140 ng/mL

OC[C@H]1O[C@@H](c2ccc(Cl)c(Cc3ccc(O[C@H]4CCOC4)cc3)c2)[C@H](O)[C@@H](O)[C@@H]1O
plasma concentration (HPLC-MS/MS; healthy Chinese volunteers, fasting; oral, 10 mg tablet, 2.25 h): 148 ± 28.2 ng/mL
